Experimental data pooled from the literature.
Numbered parts are unrelated; each lists some results of a single study. Changes are numbered by the printed parent chain.
Chain of UniProt Q8H174 (whole entry, looked up): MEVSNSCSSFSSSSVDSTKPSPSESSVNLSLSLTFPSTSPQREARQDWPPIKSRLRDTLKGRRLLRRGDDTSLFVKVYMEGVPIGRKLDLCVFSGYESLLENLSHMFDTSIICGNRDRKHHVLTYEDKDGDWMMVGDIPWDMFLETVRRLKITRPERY
Chain of UniProt Q9C966 (whole entry, looked up): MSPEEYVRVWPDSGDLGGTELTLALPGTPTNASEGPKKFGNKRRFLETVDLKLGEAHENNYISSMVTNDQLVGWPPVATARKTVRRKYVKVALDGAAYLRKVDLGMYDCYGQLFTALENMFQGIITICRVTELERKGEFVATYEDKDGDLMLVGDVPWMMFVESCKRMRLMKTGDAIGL
Chain of UniProt Q9ZTX8 (whole entry, looked up): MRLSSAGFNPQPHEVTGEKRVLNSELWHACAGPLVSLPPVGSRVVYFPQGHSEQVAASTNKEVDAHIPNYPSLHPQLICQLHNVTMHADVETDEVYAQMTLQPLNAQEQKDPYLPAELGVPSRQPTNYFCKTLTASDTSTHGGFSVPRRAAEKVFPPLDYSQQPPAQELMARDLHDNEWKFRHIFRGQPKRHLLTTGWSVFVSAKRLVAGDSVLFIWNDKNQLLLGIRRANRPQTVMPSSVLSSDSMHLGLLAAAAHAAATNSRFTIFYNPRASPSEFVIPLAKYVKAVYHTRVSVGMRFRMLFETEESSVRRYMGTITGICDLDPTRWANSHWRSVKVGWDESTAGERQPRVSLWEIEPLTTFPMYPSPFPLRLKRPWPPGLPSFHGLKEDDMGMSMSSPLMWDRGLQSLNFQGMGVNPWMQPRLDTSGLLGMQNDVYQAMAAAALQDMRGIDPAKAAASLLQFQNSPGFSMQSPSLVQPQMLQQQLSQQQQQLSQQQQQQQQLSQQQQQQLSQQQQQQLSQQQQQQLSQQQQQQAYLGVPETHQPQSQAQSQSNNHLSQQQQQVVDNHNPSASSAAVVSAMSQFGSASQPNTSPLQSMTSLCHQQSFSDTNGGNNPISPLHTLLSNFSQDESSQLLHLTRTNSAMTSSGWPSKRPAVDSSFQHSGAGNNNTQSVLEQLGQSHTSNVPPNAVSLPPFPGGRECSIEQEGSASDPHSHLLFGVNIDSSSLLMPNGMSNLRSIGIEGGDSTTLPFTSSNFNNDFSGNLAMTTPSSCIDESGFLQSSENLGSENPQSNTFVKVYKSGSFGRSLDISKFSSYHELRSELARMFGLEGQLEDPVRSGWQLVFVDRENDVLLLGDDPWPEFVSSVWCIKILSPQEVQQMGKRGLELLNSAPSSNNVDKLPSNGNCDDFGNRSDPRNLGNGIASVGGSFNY
Chain of UniProt Q8LAL2 (whole entry, looked up): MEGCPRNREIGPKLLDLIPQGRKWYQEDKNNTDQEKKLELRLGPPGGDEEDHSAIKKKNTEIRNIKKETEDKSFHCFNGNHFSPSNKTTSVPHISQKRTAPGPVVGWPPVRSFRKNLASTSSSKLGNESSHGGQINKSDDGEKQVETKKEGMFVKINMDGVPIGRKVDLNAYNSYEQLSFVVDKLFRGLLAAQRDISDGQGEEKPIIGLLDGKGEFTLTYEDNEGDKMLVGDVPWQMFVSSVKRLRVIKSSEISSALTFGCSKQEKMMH
Chain of UniProt Q9C7I9 (whole entry, looked up): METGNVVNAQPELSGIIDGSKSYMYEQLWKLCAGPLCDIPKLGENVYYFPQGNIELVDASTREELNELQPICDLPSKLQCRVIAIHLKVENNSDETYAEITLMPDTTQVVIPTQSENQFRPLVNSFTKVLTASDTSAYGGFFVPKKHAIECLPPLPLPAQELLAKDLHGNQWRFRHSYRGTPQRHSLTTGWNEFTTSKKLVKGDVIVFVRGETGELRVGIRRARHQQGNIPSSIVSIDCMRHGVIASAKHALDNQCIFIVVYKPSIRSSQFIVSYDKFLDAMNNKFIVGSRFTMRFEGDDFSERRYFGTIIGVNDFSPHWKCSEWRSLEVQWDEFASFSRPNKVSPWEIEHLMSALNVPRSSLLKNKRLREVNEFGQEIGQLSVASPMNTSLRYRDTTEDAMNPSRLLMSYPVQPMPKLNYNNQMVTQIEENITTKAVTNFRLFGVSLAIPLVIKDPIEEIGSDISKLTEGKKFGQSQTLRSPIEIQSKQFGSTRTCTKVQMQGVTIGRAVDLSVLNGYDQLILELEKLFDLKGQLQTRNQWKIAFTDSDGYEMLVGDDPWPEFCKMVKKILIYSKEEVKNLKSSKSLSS
Chain of UniProt Q9SKN5 (whole entry, looked up): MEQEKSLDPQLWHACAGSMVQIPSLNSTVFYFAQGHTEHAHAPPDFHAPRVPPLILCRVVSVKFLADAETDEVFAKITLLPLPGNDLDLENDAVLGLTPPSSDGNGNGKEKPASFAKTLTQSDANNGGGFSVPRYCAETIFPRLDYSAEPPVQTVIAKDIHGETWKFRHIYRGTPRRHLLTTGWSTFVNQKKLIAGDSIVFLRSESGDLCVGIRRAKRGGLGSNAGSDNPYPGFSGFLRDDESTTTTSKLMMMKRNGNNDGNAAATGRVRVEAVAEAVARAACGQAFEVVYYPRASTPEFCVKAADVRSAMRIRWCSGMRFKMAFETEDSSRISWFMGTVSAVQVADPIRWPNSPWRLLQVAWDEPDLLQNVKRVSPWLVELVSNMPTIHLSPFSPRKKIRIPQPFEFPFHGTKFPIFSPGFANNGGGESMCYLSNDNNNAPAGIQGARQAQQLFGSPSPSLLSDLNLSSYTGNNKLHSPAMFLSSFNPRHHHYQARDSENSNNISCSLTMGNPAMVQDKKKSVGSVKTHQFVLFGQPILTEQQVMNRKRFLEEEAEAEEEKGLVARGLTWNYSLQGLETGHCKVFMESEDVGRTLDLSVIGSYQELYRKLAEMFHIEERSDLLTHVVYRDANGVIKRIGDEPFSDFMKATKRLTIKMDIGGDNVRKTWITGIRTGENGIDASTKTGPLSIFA
Chain of UniProt Q38830 (whole entry, looked up): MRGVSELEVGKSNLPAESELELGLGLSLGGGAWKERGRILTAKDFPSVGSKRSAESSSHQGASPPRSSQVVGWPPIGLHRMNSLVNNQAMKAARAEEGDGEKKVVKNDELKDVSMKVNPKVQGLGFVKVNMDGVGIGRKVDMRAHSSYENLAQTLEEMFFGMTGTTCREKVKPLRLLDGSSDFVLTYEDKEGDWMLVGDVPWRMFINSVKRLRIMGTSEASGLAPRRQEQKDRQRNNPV
Chain of UniProt Q94JM3 (whole entry, looked up): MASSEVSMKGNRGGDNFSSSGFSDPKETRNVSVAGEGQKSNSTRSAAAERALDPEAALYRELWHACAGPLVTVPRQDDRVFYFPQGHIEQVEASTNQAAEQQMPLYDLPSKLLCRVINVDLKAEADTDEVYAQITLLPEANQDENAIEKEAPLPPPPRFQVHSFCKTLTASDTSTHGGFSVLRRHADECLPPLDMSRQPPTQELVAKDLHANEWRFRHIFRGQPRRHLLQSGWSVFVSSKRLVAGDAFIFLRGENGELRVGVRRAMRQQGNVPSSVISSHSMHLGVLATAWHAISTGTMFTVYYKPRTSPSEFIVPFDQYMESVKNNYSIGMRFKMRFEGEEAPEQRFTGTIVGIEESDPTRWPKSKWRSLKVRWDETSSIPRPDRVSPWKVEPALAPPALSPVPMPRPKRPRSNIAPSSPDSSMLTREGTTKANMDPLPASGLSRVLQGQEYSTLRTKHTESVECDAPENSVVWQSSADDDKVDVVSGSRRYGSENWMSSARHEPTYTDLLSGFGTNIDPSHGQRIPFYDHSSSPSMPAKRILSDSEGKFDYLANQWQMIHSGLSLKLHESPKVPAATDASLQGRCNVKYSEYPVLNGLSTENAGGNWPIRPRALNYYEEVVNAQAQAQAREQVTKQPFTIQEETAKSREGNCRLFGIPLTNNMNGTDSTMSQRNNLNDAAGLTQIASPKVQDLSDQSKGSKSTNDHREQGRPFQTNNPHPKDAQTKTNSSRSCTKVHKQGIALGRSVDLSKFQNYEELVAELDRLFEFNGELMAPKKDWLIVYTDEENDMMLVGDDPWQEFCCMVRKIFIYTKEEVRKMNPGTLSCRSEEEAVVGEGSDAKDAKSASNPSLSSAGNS

Series 1
Molecule: B1 (IAA6)
Technique: two-hybrid
Direction: higher = firmer interaction
Endpoint: positive tests
B1: IAA6 (Arabidopsis thaliana, UniProt Q38824); chain MAKEGLALEITELRLGLPGDNYSEISVCGSSKKKKRVLSDMMTSSALDTENENSVVSSVEDESLPVVKSQAVGWPPVCSYRRKKNNEEASKAIGYVKVSMDGVPYMRKIDLGSSNSYINLVTVLENLFGCLGIGVAKEGKKCEYIIIYEDKDRDWMLVGDVPWQMFKESCKRLRIVKRSDATGFGLQQD
IAA15 (Arabidopsis thaliana, UniProt Q9C966); relative to: out of 4 tests: 0
IAA31 (Arabidopsis thaliana, UniProt Q8H174); relative to: out of 2 tests: 0
ARF10 575-693 (Arabidopsis thaliana, UniProt Q9SKN5); relative to: out of 4 tests: 0
ARF2 727-859 (Arabidopsis thaliana, UniProt Q94JM3); relative to: out of 4 tests: 1
ARF6 790-935 (Arabidopsis thaliana, UniProt Q9ZTX8); relative to: out of 4 tests: 1
IAA12 (Arabidopsis thaliana, UniProt Q38830); relative to: out of 4 tests: 0
ARF20 484-590 (Arabidopsis thaliana, UniProt Q9C7I9); relative to: out of 4 tests: 0
IAA26 (Arabidopsis thaliana, UniProt Q8LAL2); relative to: out of 4 tests: 0

Series 2
Target: Protein C-ets-1 (ETS1, Homo sapiens, UniProt P14921, residues 1-441, K379A, full length assumed)
Technique: protein-binding microarray
Form: double-stranded DNA, one strand shown
Medium: in vitro
Tested at: not given
Setting: k-mer, scored over probes, only values ≥0.25
Direction: higher = stronger binding
Endpoint: E-score
Construct (chain): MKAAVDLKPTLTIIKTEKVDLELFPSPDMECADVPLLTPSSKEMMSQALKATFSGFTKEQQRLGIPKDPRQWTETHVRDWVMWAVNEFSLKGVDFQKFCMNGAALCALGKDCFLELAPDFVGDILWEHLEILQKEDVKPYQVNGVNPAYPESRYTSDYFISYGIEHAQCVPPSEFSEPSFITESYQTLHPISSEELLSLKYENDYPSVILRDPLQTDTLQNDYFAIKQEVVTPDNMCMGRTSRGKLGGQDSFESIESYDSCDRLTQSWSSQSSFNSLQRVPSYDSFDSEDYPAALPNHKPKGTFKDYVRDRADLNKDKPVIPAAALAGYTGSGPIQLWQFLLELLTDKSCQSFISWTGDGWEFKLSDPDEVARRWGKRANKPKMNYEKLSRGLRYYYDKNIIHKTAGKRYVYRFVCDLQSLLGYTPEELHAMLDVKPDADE
GTACAAAA: 0.334
CATGCCGG: 0.34
CGACGGAC: 0.335
ATTTACCG: 0.327
ACTATACA: 0.31
CGGCCGAC: 0.286
CCCGGTCG: 0.444
ATGGTATC: 0.258

Series 3
Target: Centromere-binding protein 1, full length, His-tagged (CBF1, Saccharomyces cerevisiae, UniProt P17106, residues 1-351)
Chain of UniProt P17106 (whole entry, looked up): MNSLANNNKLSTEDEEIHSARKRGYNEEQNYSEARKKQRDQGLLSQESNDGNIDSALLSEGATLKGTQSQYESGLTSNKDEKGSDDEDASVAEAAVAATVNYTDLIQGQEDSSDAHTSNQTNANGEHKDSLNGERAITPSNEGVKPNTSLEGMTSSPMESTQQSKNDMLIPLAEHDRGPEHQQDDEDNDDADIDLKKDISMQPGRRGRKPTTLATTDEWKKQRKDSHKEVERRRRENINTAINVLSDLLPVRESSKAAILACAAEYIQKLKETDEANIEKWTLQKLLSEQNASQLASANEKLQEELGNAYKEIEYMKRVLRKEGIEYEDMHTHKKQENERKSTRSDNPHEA
Technique: competition protein-binding microarray
Form: double-stranded DNA, one strand shown
Medium: in vitro
Tested at: 2 µM
Setting: whole 60-bp probe, lowest competitor level
Added: Pho4 competitor, 0.05 µM
Direction: higher = stronger binding
Endpoint: fluorescence intensity
Shared flanks, not repeated: … GTCTTGATTCGCTTGACGCTGCTG
ACGCTGAATACTTGGCAGGTATGGCTTTCAACAATG: 79.1 a.u.
CGTCCTAGTGATTTTCACGTGATGTCCATGAGGAAG: 3330 a.u.
AGTTACTATTTCTGGCTCGTGTAATATATGTATGCT: 131 a.u.
CAACGATATCTTTATCAGGTGATTCTTACGCGCCAG: 888 a.u.
TGCCCGCAGTGGGTCCACGTGAAATGCGAGCCTTTG: 366 a.u.
TTGTGGGAGTGATTGTGCGTGTATATGTGTGTTGGC: 82.1 a.u.
TACATTTCTTCCCCTCTCGTGATGGCTAGATAATAG: 187 a.u.
TTCATGGTTCTTTCACACGTGAGCCTTCCTCGGAGG: 1050 a.u.

Single results of other studies
Starting sequence: viral docking peptide; KGVKRKLFAEDSS
KGVKRKLFQEDSS [A9Q]  normalised enrichment score (CCND1, cyclin fold, Cln2 fusion (human); yeast growth competition, sequencing; yeast; strong parent motif; relative to: not given, higher = stronger binding): 1.17

A few entries again (series 2):
CATGCCGG: 0.34
GTACAAAA: 0.334
ACTATACA: 0.31
